Results of several laboratories.
“And” joins repeats or separate records; there may be more than shown. ± gives the spread as reported.

Structure (SMILES) = COC1OC(C)C(OS(=O)(=O)O)C(OC2OC(C)C(OS(=O)(=O)O)C(OC3OC(C)C(OS(=O)(=O)O)C(OC4OC(C)C(OS(=O)(=O)O)C(OC5OC(C)C(OS(=O)(=O)O)C(OC6OC(C)C(OS(=O)(=O)O)C(OC7OC(C)C(OS(=O)(=O)O)C(OS(=O)(=O)O)C7OS(=O)(=O)O)C6OS(=O)(=O)O)C5OS(=O)(=O)O)C4OS(=O)(=O)O)C3OS(=O)(=O)O)C2OS(=O)(=O)O)C1OS(=O)(=O)O (centres unmarked); test system = human plasma; setting = 128 µg/mL; measurement = prothrombin time; result = 15.2 ± 0.2 s
Structure (SMILES) = COc1cc(/C=C2\CN(C(C)C)C/C(=C\c3cc(Cl)c(O)c(OC)c3)C2=O)cc(Cl)c1O; assay = ABTS scavenging; setting = 20 min; measurement = IC50; result = 369 µg/mL
Structure (SMILES) = Oc1cc2c(cc1O)C(c1cccc3ccccc13)NCC2 (centres unmarked); assay = ABTS scavenging; setting = 10 min, dark; measurement = IC50; result = 14.2 µM
Structure (SMILES) = COc1cc([C@H](O)[C@H](O)CO)ccc1O; assay = ABTS scavenging; measurement = IC50; result = 7.35 µg/mL
Structure (SMILES) = CCCCCCCCCCCCCCCC(=O)NCCCC[C@H](N)C(=O)N[C@@H](CC(=O)O)C(=O)N[C@H](C(=O)N[C@@H](Cc1c[nH]cn1)C(=O)N[C@@H](Cc1ccccc1)C(=O)N[C@@H](CCCNC(=N)N)C(=O)N[C@H](C(=O)N[C@@H](Cc1ccccc1)C(=O)N[C@@H](CCCNC(=N)N)C(=O)N[C@@H](CO)C(=O)N[C@@H](Cc1c[nH]cn1)C(=O)N[C@@H](CO)C(=O)N[C@@H](CC(=O)O)C(=O)N[C@@H](Cc1ccc(O)cc1)C(=O)N[C@@H](CCCNC(=N)N)C(=O)N[C@@H](CCCNC(=N)N)C(=O)N[C@H](C(=O)O)[C@@H](C)CC)[C@@H](C)O)[C@@H](C)O; test system = C57BL/6J mice, MCD diet-fed; setting = dose not given, 3 weeks, NASH model; measurement = liver weight; result = 1.1 ± 0.14 g
Structure (SMILES) = COC1OC(C)C(OS(=O)(=O)O)C(OC2OC(C)C(OS(=O)(=O)O)C(OC3OC(C)C(OS(=O)(=O)O)C(OC4OC(C)C(OS(=O)(=O)O)C(OC5OC(C)C(OS(=O)(=O)O)C(OC6OC(C)C(OS(=O)(=O)O)C(OS(=O)(=O)O)C6O)C5O)C4O)C3O)C2O)C1O (centres unmarked); test system = human plasma; setting = 128 µg/mL; measurement = prothrombin time; result = 15.1 ± 0.3 s
Structure (SMILES) = CC(C)(C)NCC(SS(=O)(=O)O)c1ccccc1 (centres unmarked); test system = Swiss Webster mice, Schistosoma mansoni-infected; setting = 100 mg/kg x 4 doses from day 42 post-infection, perfusion day 56 post-infection; measurement = spleen weight; result = 0.6 g
Structure (SMILES) = CCC(CC)n1c(Cc2ccco2)nc2cc(C(=O)N[C@@H](CC(=O)O)c3ccccc3)ccc21; test system = mouse, HFpEF model (HFD plus L-NAME); setting = ip, 20 mg/kg/day, 2 wk; measurement = lung wet/dry weight ratio; result = decreased
Structure (SMILES) = CN1CCCNC(=O)c2cccc(c2)C(=O)NCCCN(C)CCCNc2cccc3c2C(=O)c2cccc(c2C3=O)NCCC1; test system = SAS xenograft, KSN/Slc nude mice; setting = dose not given, day 0; measurement = tumour volume; result = 101 mm3 and 63.5 mm3 and 87.1 mm3 and 60 mm3
Structure (SMILES) = NC[C@@H](C(=O)Nc1ccc(-c2cn[nH]c2)cc1)c1ccccc1; assay = refers to: pMLC-2 Thr18/Ser19; test system = ocular hypertensive rabbit, trabecular meshwork; setting = topical, 0.1 %, 24 h; scale = direction not given; measurement = pMLC-2 immunostaining score; result = 2 ± 0.8
Structure (SMILES) = COC1OC(C)C(O)C(OC2OC(C)C(O)C(OC3OC(C)C(O)C(OC4OC(C)C(O)C(OC5OC(C)C(O)C(OC6OC(C)C(O)C(OC7OC(C)C(O)C(OC8OC(C)C(O)C(OC9OC(C)C(O)C(OS(=O)(=O)O)C9OS(=O)(=O)O)C8OS(=O)(=O)O)C7OS(=O)(=O)O)C6OS(=O)(=O)O)C5OS(=O)(=O)O)C4OS(=O)(=O)O)C3OS(=O)(=O)O)C2OS(=O)(=O)O)C1OS(=O)(=O)O (centres unmarked); test system = human plasma; setting = 128 µg/mL; scale = baseline: control; measurement = prothrombin time prolongation; result = 1 fold
Structure (SMILES) = CCN(C(=O)c1cc(F)ccc1Oc1nncnc1N1CCC2(C1)CN([C@H](CCCN(C)CCOC)C(C)C)C2)C(C)C; test system = OCI-AML-3, mouse, disseminated AML model; setting = 100 mg/kg; measurement = increase in life span; result = 95%
Structure (SMILES) = S=C(S)OC1CC2CC1C1CCCC21 (centres unmarked); assay = LC-MS/MS, refers to: extracellular Met-enkephalin; test system = mouse striatal brain slices; setting = 500 µM, 20 min, together with: 50 mM KCl; measurement = Met-enkephalin concentration; result = 2430 pM and 6170 pM and 2480 pM and 1170 pM and 467 pM and 3580 pM and 903 pM and 539 pM
Structure (SMILES) = COC(=O)C1CN1S(=O)(=O)c1ccc2cc(C)ccc2c1 (centres unmarked); test system = mouse, Lewis lung carcinoma; setting = ip, 100 mg/kg, 384 h; measurement = tumour volume; result = 891 mm3
Structure (SMILES) = COC1OC(C)C(O)C(OC2OC(C)C(O)C(OC3OC(C)C(O)C(OS(=O)(=O)O)C3OS(=O)(=O)O)C2OS(=O)(=O)O)C1OS(=O)(=O)O (centres unmarked); test system = human plasma; setting = 128 µg/mL; measurement = prothrombin time; result = 15.1 ± 0.4 s
Structure (SMILES) = O=C(NS(=O)(=O)c1cccs1)c1cc2ccccc2n1Cc1ccc(Br)c2ccccc12; test system = mouse, chronic hyperuricaemia model, serum; setting = dose not given; measurement = serum uric acid; result = 469 µM and 304 µM and 267 µM and 509 µM and 365 µM and 489 µM
Structure (SMILES) = CC(=O)[O-].O.O.O.O.[Mn+2].[O-]c1ccc(Br)cc1C=NCCN1CCOCC1; assay = hydroxyl radical scavenging; setting = 40 µM; measurement = inhibition; result = 6.74%
Structure (SMILES) = COC1OC(C)C(OC2OC(C)C(OS(=O)(=O)O)C(OC3OC(C)C(OC4OC(C)C(OS(=O)(=O)O)C(OC5OC(C)C(OC6OC(C)C(OS(=O)(=O)O)C(OC7OC(C)C(OC8OC(C)C(OS(=O)(=O)O)C(OC9OC(C)C(OC%10OC(C)C(OS(=O)(=O)O)C(OC%11OC(C)C(OC%12OC(C)C(OS(=O)(=O)O)C(OS(=O)(=O)O)C%12O)C(OS(=O)(=O)O)C%11O)C%10O)C(OS(=O)(=O)O)C9O)C8O)C(OS(=O)(=O)O)C7O)C6O)C(OS(=O)(=O)O)C5O)C4O)C(OS(=O)(=O)O)C3O)C2O)C(OS(=O)(=O)O)C1O (centres unmarked); test system = human plasma; setting = 128 µg/mL; measurement = prothrombin time; result = 14.7 ± 0.5 s
Structure (SMILES) = COc1cc2c(NC3CCN(C(C)C)CC3)cc(N3CCOCC3)nc2cc1OCCCN1CCCC1; assay = TMT proteomics, refers to: YWHAB; test system = 5xFAD mice, hippocampus; setting = dose not given; scale = baseline: wild-type mice; measurement = log2 fold change; result = 0.041
Structure (SMILES) = COC1CN([C@H]2CC[C@H]([C@@]3(C)Oc4c(Cl)cc(C(=O)NCc5c(SC)cc(C)[nH]c5=O)c(C)c4O3)CC2)C1; assay = RNA-seq, refers to: HOMER3 mouse homolog; test system = mouse, HT-1376 xenograft, whole blood; setting = dose not given; scale = baseline: vehicle; measurement = log2 fold change; result = 0.386
Structure (SMILES) = COC1OC(C)C(OC2OC(C)C(OS(=O)(=O)O)C(OC3OC(C)C(OC4OC(C)C(OS(=O)(=O)O)C(OC5OC(C)C(OS(=O)(=O)O)C(OS(=O)(=O)O)C5OS(=O)(=O)O)C4OS(=O)(=O)O)C(OS(=O)(=O)O)C3OS(=O)(=O)O)C2OS(=O)(=O)O)C(OS(=O)(=O)O)C1OS(=O)(=O)O (centres unmarked); test system = human plasma; setting = 128 µg/mL; scale = baseline: control; measurement = prothrombin time prolongation; result = 1.05 fold
Structure (SMILES) = COc1cc(O)ccc1CCC(c1ccc(O)cc1)c1cc2c(c(C)c1O)OC(c1ccc(O)cc1)CC2 (mixture of isomers); assay = refers to: RvD5; test system = human whole blood; setting = 0.3 µM, together with: Escherichia coli; measurement = amount; result = 8 ± 2 pg/mL blood
Structure (SMILES) = COC1OC(C)C(OC2OC(C)C(OS(=O)(=O)O)C(OC3OC(C)C(OC4OC(C)C(OS(=O)(=O)O)C(OC5OC(C)C(OC6OC(C)C(OS(=O)(=O)O)C(OS(=O)(=O)O)C6OS(=O)(=O)O)C(OS(=O)(=O)O)C5OS(=O)(=O)O)C4OS(=O)(=O)O)C(OS(=O)(=O)O)C3OS(=O)(=O)O)C2OS(=O)(=O)O)C(OS(=O)(=O)O)C1OS(=O)(=O)O (centres unmarked); test system = human plasma; setting = 128 µg/mL; measurement = prothrombin time; result = 15.5 ± 0.5 s
Structure (SMILES) = CN1CCC[C@]1(C)/C=C/S(=O)(=O)NC(=O)Nc1c2c(cc3c1CCC3)CCC2; test system = human, whole blood ex vivo; setting = 100 mg twice daily, day 14, 36 h, multiple ascending dose, together with: LPS and ATP; measurement = IL-18 inhibition; result = 103%
Structure (SMILES) = COC1OC(C)C(O)C(OC2OC(C)C(O)C(OS(=O)(=O)O)C2OS(=O)(=O)O)C1OS(=O)(=O)O (centres unmarked); test system = human plasma; setting = 128 µg/mL; measurement = prothrombin time; result = 15.3 ± 0.7 s
Structure (SMILES) = CC(C)C[C@H](NC(=O)[C@H](CC(=O)O)NC(=O)CNC(=O)[C@@H](N)CCCNC(=N)N)C(=O)N[C@@H](C)C(=O)N[C@H](C(=O)N[C@@H](CC(C)C)C(=O)N[C@@H](CCCNC(=N)N)C(=O)N[C@@H](CCC(N)=O)C(=O)N[C@@H](CC(C)C)C(=O)N[C@@H](C)C(=O)N[C@@H](CCC(N)=O)C(=O)N[C@@H](CCC(=O)O)C(=O)N[C@@H](CC(=O)O)C(=O)NCC(=O)N[C@H](C(=O)N[C@H](C(=O)NCC(=O)N[C@H](C(=O)N[C@@H](CCCNC(=N)N)C(=O)NCCOCCOCCOCCOCCOCCOCCOCCOCCOCCOCCOCCOCCC(=O)N[C@@H](CS)C(N)=O)C(C)C)C(C)C)C(C)C)[C@@H](C)O; assay = ex vivo NIR imaging; test system = NOD/SCID mice, xenograft, H2009 xenograft; setting = intravenous, 30 µg, 24 h; scale = baseline: H460 xenograft; measurement = fluorescence signal ratio; result = 40.4 and 121

Some of these lines once more:
Structure (SMILES) = CC(=O)[O-].O.O.O.O.[Mn+2].[O-]c1ccc(Br)cc1C=NCCN1CCOCC1; assay = hydroxyl radical scavenging; setting = 40 µM; measurement = inhibition; result = 6.74%
